Results collected from several papers.
Compare with care: the assays were run in different laboratories.
4'-phosphopantetheinyl transferase PptT: 4'-phosphopantetheinyl transferase PptT (Mycobacterium tuberculosis, UniProt O33336)
Sequence of UniProt O33336 (whole entry, looked up): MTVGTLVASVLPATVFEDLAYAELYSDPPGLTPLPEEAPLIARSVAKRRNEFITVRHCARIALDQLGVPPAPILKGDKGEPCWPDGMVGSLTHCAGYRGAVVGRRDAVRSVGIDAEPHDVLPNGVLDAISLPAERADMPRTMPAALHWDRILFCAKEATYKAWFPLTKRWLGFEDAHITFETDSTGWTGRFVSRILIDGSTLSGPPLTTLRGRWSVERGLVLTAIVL
Sequence of UniProt Q15349 (whole entry, looked up): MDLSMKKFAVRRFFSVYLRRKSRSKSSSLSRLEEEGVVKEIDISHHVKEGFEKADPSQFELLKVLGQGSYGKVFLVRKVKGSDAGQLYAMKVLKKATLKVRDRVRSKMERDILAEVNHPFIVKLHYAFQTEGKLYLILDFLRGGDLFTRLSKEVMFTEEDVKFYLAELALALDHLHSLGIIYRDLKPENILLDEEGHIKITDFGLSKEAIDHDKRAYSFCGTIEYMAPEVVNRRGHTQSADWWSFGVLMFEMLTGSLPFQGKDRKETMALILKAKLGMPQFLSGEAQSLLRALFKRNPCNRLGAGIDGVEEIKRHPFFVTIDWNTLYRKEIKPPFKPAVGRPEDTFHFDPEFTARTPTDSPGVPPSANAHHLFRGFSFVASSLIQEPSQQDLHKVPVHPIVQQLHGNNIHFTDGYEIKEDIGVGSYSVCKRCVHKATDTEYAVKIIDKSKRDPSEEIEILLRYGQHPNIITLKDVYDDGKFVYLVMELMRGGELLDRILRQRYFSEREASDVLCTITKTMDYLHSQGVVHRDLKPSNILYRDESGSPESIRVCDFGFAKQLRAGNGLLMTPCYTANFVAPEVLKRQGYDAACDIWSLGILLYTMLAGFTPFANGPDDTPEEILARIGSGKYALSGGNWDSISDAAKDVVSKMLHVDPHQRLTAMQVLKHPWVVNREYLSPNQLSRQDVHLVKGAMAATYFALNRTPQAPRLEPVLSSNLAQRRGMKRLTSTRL
Sequence of UniProt P21918 (whole entry, looked up): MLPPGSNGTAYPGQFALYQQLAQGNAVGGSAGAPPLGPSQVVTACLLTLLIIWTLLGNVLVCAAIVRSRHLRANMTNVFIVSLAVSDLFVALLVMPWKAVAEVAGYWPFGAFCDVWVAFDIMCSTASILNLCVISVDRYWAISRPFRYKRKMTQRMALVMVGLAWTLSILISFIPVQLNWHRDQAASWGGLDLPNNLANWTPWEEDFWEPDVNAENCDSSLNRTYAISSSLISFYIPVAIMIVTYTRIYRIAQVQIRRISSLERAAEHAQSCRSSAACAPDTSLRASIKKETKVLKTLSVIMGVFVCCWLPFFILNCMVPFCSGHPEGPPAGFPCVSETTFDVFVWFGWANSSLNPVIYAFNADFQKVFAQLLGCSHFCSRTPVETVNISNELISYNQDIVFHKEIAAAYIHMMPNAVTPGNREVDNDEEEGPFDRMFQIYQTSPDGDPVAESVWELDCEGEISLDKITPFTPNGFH
Sequence of UniProt P35372 (whole entry, looked up): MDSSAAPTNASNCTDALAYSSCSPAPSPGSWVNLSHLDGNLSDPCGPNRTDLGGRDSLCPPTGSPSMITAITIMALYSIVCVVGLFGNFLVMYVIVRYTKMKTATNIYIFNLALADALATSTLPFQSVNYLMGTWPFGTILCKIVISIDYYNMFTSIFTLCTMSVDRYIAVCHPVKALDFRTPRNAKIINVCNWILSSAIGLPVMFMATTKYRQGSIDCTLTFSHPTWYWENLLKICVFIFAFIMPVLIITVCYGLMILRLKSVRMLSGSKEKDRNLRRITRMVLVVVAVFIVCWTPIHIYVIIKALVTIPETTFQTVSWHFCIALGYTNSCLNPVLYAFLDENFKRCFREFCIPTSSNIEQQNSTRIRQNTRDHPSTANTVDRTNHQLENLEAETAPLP
Sequence of UniProt Q99640 (whole entry, looked up): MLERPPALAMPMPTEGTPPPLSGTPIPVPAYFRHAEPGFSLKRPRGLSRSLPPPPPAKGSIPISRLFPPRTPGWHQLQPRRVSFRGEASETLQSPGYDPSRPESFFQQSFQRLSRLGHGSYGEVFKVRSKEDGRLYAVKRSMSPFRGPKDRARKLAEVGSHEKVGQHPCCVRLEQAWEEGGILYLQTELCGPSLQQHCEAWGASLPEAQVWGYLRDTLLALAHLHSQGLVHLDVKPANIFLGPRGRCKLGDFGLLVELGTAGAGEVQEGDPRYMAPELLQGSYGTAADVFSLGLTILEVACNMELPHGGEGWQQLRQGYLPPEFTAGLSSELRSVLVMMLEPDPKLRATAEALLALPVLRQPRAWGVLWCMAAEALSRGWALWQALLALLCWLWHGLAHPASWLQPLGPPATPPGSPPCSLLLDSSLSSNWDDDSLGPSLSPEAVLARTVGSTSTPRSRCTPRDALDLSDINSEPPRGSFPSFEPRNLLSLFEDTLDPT
Sequence of UniProt O60741 (whole entry, looked up): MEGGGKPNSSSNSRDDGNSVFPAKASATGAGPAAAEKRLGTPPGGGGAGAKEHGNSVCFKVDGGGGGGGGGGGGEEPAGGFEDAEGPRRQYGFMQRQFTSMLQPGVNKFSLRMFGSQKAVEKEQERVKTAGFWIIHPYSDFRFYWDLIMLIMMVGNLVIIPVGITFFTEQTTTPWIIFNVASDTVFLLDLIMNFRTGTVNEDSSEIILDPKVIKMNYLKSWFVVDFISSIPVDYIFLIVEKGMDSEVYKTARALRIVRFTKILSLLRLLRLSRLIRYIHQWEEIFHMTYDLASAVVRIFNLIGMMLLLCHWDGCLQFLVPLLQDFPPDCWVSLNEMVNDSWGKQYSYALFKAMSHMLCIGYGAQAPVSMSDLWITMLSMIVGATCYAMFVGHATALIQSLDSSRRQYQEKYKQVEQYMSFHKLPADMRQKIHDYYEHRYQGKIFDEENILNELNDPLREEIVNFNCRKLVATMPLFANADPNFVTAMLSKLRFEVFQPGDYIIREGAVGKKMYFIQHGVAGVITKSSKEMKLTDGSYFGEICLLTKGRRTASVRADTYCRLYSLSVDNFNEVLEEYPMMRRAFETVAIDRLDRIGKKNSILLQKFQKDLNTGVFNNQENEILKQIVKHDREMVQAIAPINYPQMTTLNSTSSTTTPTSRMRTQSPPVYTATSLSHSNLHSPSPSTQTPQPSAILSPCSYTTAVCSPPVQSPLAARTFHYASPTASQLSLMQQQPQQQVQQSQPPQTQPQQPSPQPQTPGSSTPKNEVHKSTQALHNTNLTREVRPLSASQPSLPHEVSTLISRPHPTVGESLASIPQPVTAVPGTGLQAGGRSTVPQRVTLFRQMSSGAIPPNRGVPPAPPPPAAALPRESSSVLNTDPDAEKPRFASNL
Sequence of UniProt P41743 (whole entry, looked up): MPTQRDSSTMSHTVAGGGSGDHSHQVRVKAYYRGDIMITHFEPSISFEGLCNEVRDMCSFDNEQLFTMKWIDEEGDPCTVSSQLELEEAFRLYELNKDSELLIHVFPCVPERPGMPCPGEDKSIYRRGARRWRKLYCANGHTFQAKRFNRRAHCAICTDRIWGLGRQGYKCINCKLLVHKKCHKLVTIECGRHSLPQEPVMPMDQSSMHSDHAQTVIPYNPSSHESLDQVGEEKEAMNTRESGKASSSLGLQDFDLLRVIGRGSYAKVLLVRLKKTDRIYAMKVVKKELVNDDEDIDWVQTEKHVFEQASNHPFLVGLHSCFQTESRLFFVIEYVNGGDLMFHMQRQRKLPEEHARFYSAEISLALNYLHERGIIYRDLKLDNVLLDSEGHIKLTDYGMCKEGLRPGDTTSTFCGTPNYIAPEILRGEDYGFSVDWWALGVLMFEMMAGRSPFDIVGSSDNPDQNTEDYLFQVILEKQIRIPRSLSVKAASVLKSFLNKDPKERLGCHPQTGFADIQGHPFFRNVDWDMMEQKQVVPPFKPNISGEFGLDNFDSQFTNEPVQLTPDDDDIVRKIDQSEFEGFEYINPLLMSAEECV

| SMILES | target | assay | system | conditions | endpoint | value |
| --- | --- | --- | --- | --- | --- | --- |
| C=CCN1C[C@H]2CC[C@@H](C1)N2c1cccc(O)c1 | Mu-type opioid receptor (OPRM1, Homo sapiens, UniProt P35372) | cAMP, agonist | OPRM1 |  | Emax | 85.8% |
| Nc1ncc(-c2nc(N3CCOCC3)nc(N3CCOCC3)n2)c(C(F)F)n1 | Receptor-type tyrosine-protein kinase FLT3 (FLT3, Homo sapiens, UniProt P36888) | binding, competition with immobilised ligand |  | 10 µM | remaining binding | 88% |
| Cc1nn(C)cc1-c1nc2c(N3CCN(Cc4ccc(Cl)cc4)CC3)c(Cl)cnc2[nH]1 | Ribosomal protein S6 kinase alpha-2, N-terminal kinase domain (RPS6KA2, Homo sapiens, UniProt Q15349) | binding, competition with immobilised ligand |  | 1 µM | remaining binding | 100% |
| [2H]c1c([2H])c([C@]2([2H])CCCN2C(=O)C(C)(C)Oc2ccc3cn[nH]c3c2)c([2H])c([2H])c1C([2H])([2H])[2H] | Protein kinase C iota type (PRKCI, Homo sapiens, UniProt P41743) | binding, competition with immobilised ligand |  | 1 µM | remaining binding | 70% |
| COc1ncccc1-c1cnn2ccc(N3CCN(C(=O)OC(C)C)CC3)nc12 | Membrane-associated tyrosine- and threonine-specific cdc2-inhibitory kinase (PKMYT1, Homo sapiens, UniProt Q99640) | binding, competition with immobilised ligand |  | 1 µM | remaining binding | 100% |
| CN1CCC[C@H]1c1cccnc1 | D(1B) dopamine receptor (DRD5, Homo sapiens, UniProt P21918) | ligand displacement |  | 50 µM | inhibition | -0.77% |
| O=c1c2c(Cl)cccc2[nH]c(=S)n1Cc1cccnc1 | 4'-phosphopantetheinyl transferase PptT | enzyme activity, inhibitor, FP |  |  | IC50 | 430 nM |
| CC12CC3CC(C)(C1)CC(N)(C3)C2 | Potassium/sodium hyperpolarization-activated cyclic nucleotide-gated channel 1 (Homo sapiens, UniProt O60741) | ion current, inhibitor |  | 30 µM | inhibition | 15.1% |
| C#Cc1n[nH]c2c(-c3cn(C(C)c4ccccn4)c(=O)[nH]c3=O)cc(F)cc12 (centres unmarked) | SRSF protein kinase 1 (SRPK1, Homo sapiens, UniProt Q96SB4) | enzyme activity, inhibitor |  | 1 µM | inhibition | 6.7% |
| N#Cc1ccc2[nH]c(=S)n(Cc3cccnc3)c(=O)c2c1 | 4'-phosphopantetheinyl transferase PptT | enzyme activity, inhibitor, FP |  |  | IC50 | 290 nM |
| CC(C)CC(=O)OC[C@H]1O[C@@](C#N)(c2ccc3c(N)ncnn23)[C@H](O)[C@@H]1O | Cannabinoid receptor 2 (CNR2, Homo sapiens, UniProt P34972) | cell-free assay |  | 20 µM | inhibition | 8% |

Excerpt of the above:
| SMILES | target | assay | system | conditions | endpoint | value |
| --- | --- | --- | --- | --- | --- | --- |
| O=c1c2c(Cl)cccc2[nH]c(=S)n1Cc1cccnc1 | 4'-phosphopantetheinyl transferase PptT | enzyme activity, inhibitor, FP |  |  | IC50 | 430 nM |
| CC12CC3CC(C)(C1)CC(N)(C3)C2 | Potassium/sodium hyperpolarization-activated cyclic nucleotide-gated channel 1 (Homo sapiens, UniProt O60741) | ion current, inhibitor |  | 30 µM | inhibition | 15.1% |
